{"data": "Experimental data gathered from unrelated publications", "note": "Each numbered part is a random draw from the data of one study; scales do not carry over between parts. Changes are numbered by the printed parent chain."}
{"data": "Sample 1", "target": "RING finger protein unkempt homolog, zinc fingers 1-6, GST-SBP tag (UNK, Homo sapiens, UniProt Q9C0B0, residues 30-357)", "technique": "RNA Bind-n-Seq", "molecule type": "RNA", "matrix": "in vitro", "tested at": "not given", "setting": "RNA with constant flanks, human and mouse sites, ends assumed", "relative to": "input RNA pool", "reading": "higher = stronger binding", "all sequences stand within": "GGGAGUUCUACAGUCCGACGAUC … CAACAGAGGAUUGAGCAUCA", "sequence of UniProt Q9C0B0 (30-357, looked up)": "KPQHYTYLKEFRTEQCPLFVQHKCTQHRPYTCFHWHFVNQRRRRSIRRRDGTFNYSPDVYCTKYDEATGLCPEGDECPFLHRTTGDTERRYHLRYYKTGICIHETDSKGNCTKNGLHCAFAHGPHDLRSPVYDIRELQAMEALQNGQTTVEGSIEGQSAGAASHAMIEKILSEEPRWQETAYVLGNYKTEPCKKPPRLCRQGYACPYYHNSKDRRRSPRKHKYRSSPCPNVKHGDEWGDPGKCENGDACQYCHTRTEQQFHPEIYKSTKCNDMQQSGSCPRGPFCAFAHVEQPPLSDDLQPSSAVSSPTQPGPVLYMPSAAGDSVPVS"}
{"Oligonucleotide": "UGAAAAUAAUCGUCACCCAGAAAAUCCAGAAAACUGAAGAUUUCAUCAGUUGGAAACAGUAGCACUUUGAAAACUUUUUAGGCCAGCUUUAAUUUAAUGGCCCUACUGAUAUUCACAUCG", "bound/input enrichment [ratio]": 0.888}
{"Oligonucleotide": "UUUCAGUGAAGUGGAGUUACUCCAAGUGAAACGCUGUUUUCUGGUUUUAGCCAAACUGCAAUUAGAUGUGUCUUUGCAAUCUAAAAGUUGUACACAAUCAACAAUACACUUUGCUUACUC", "bound/input enrichment [ratio]": 0.107}
{"Oligonucleotide": "CAGGAGUGUGGGGAGUGCUUUGCUCAUAGCUCUGACCUCACUGAGCACCAGAAGAUUCAUGAUAGGGAGAAGCCCUCUGGAAGCAGAAACUAUGAAUGGUCUGUCAUUCGCAGCUUGGCC", "bound/input enrichment [ratio]": 0.178}
{"Oligonucleotide": "GCGUCGCCGGAAACCCAGGGAACCUCUCUGAAGUGACACCUCACCCCUACACACCGUCCGUUCACCCCCGUCUCUUCCUUCUGCUUUUCGGUUUUUGGAAAGGGAUCCAUCUCCAGGCAG", "bound/input enrichment [ratio]": 0.135}
{"Oligonucleotide": "CAAGUGGGAACAGAAUUCAAAAGUAACUUUCCAGAAAAGAAUUUUAAAGUUGGCAUUUCAGAGCAGAAAUUUAAAUUUGGGCAUGUGGAUCAAGAAAAAACACCUUCCUUUGCCUUUCAG", "bound/input enrichment [ratio]": 0.637}
{"Oligonucleotide": "AAAGAUGGAGAAAAGCAAGAUCUUUGAUAUCUUUCAUGUUUGCCUGCAGUUGAACAAUACUUUAGAGUACUUUUUAAAAUUAUUUCUCACAAAGAAAUGAAUGUACAAUCCAAUGAAAAC", "bound/input enrichment [ratio]": 4.73}
{"Oligonucleotide": "CUCAGAGACGUGGCAUAUCAAUAUGUGAAAAAGGGGUCUCGAAUUUAUUUGGAAGGGAAAAUAGACUAUGGUGAAUACAUGGAUAAAAAUAAUGUGAGGCGACAAGCAACAACAAUCAUA", "bound/input enrichment [ratio]": 0.641}
{"Oligonucleotide": "UGUAACUUAUCUGUAAAAGGUUCCCCCCCCCUACUGUCAAAAAAUAUGCAUGUAUAGUAAUUAGGACUUCAUUCCUCCAUGUUUUCUUCCCUUAUCUUACUGUCAUUGUCCUUAAACCUU", "bound/input enrichment [ratio]": 2.84}
{"Oligonucleotide": "UUUCUCACUCACAUUUUUAUGAAGAGAAUUUUGCAUGAUUUUAUGAUUGACAGCAUCUUAAAAUCUAGUUUGUGAUCCUCCUAGCACGGAGAAGGAAUCCUUAUCUGGGAAAAGUCUGUG", "bound/input enrichment [ratio]": 0.237}
{"Oligonucleotide": "AGCCAAUUUUUGCUUUCAUUGCAAGCUAUAUCUACAAUGGUACAUUUUUACAUGGGAACAAAAGGACCUGAAAAUCCUCAAGUUGAAGUGUUAUCAGAGGAAGAAGGGGAAGAAGAAGAG", "bound/input enrichment [ratio]": 0.212}
{"Oligonucleotide": "UUAGCCUUUUAAUUGAUCGAGGUGCUGAAGUAGAUCAUUGUGAUAAAGAUGGCAUGACUCCACUGCUGGUAGCUGCCUAUGAAGGACAUGUUGAUGUGGUUGACUUGCUUCUAGAAGGGG", "bound/input enrichment [ratio]": 1.67}
{"data": "Sample 2", "target": "CCNF, cyclin fold, Cln2 fusion (human)", "technique": "yeast growth competition, sequencing", "matrix": "yeast", "setting": "strong parent motif", "relative to": "not given", "reading": "higher = stronger binding", "starting sequence": "DTL docking peptide (human); PSSMRKICTYFHR"}
{"Change": "PSSMRKICAYFHR [T9A]", "normalised enrichment score": 1.3}
{"Change": "PSSARKICTYFHR [M4A]", "normalised enrichment score": 1.54}
{"Change": "PSSMRKICTAFHR [Y10A]", "normalised enrichment score": 1.55}
{"Change": "PSSMRKACTYFHR [I7A]", "normalised enrichment score": 1.14}
{"Change": "PSSMRKICTYAHR [F11A]", "normalised enrichment score": 0.854}
{"Change": "PSSMRKICTYFAR [H12A]", "normalised enrichment score": 1.91}
{"Change": "PSSMAKICTYFHR [R5A]", "normalised enrichment score": 1.76}
{"data": "Sample 3", "target": "ATF2, bZIP domain (human)", "technique": "DHFR protein complementation", "matrix": "yeast", "setting": "single substitutions, most at no-binding floor", "relative to": "wild-type JUN-FOS pair", "reading": "higher = stronger binding", "starting sequence": "JUN, bZIP domain (human); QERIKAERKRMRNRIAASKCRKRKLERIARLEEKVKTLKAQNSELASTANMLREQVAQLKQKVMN; partner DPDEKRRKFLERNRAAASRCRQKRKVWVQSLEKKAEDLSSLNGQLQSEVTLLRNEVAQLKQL"}
{"Change": "I28F", "binding fitness [natural log]": -1.54}
{"Change": "E32S", "binding fitness [natural log]": -1.39}
{"Change": "E32I", "binding fitness [natural log]": -1.43}
{"Change": "T48E", "binding fitness [natural log]": -1.31}
{"Change": "K39R", "binding fitness [natural log]": -1.33}
{"Change": "K36P", "binding fitness [natural log]": -1.48}
{"Change": "A57H", "binding fitness [natural log]": -1.43}
{"Change": "L45E", "binding fitness [natural log]": -1.39}
{"Change": "E44I", "binding fitness [natural log]": -1.48}
{"Change": "E44W", "binding fitness [natural log]": -1.45}
{"Change": "I28M", "binding fitness [natural log]": -1.32}
{"Change": "Q55K", "binding fitness [natural log]": -1.25}
{"Change": "R30G", "binding fitness [natural log]": -1.35}
{"Change": "E33G", "binding fitness [natural log]": -1.45}
{"Change": "A40G", "binding fitness [natural log]": -1.47}
{"Change": "I28V", "binding fitness [natural log]": -1.2}
{"Change": "S43M", "binding fitness [natural log]": -1.41}
{"data": "Sample 4", "target": "ABI1, truncated, D143A, DHFR fusion (Arabidopsis thaliana)", "technique": "DHFR PCA, deep sequencing", "matrix": "yeast", "setting": "methotrexate growth selection, single substitutions", "together with": "(+)-ABA 0.0091 µM", "relative to": "wild-type fitted maximum", "reading": "higher = stronger binding", "starting sequence": "PYL1, truncated, DHFR fusion (Arabidopsis thaliana); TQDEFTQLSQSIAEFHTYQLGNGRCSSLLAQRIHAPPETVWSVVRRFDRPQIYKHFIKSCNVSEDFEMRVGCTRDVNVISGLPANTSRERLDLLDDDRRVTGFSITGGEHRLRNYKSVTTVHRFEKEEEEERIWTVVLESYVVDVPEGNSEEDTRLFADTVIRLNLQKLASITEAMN; partner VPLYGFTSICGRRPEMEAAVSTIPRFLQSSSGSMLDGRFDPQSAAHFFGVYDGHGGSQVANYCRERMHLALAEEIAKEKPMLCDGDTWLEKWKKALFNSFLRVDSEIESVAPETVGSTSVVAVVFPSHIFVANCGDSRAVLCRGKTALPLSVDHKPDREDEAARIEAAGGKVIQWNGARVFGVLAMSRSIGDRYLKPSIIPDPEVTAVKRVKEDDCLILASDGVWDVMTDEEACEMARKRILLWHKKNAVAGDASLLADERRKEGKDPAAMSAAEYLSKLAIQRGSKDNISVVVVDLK"}
{"Change": "A35H", "relative binding score [%]": -5.39}
{"Change": "R163Q", "relative binding score [%]": 24.3}
{"Change": "F5R", "relative binding score [%]": 7.6}
{"Change": "E109T", "relative binding score [%]": 7.2}
{"Change": "K58G", "relative binding score [%]": -1.04}
{"Change": "D159W", "relative binding score [%]": -0.223}
{"Change": "F124N", "relative binding score [%]": -1.38}
{"Change": "D3K", "relative binding score [%]": 18.5}
{"Change": "I133R", "relative binding score [%]": 10.8}
{"Change": "W134M", "relative binding score [%]": 27.6}
{"Change": "E129K", "relative binding score [%]": 16.1}
{"Change": "I12N", "relative binding score [%]": -4.69}
{"Change": "P36H", "relative binding score [%]": 28.8}
{"Change": "A35F", "relative binding score [%]": -0.949}
{"Change": "A84Y", "relative binding score [%]": 105}
{"Change": "R90F", "relative binding score [%]": 1.13}
{"Change": "V40M", "relative binding score [%]": -3.26}
{"Change": "L164R", "relative binding score [%]": 0.575}
{"Change": "S80G", "relative binding score [%]": 11.5}
{"note": "Excerpt of the above (sample 3):"}
{"Change": "E32I", "binding fitness [natural log]": -1.43}
{"Change": "T48E", "binding fitness [natural log]": -1.31}
{"Change": "K39R", "binding fitness [natural log]": -1.33}
{"Change": "K36P", "binding fitness [natural log]": -1.48}
{"Change": "A57H", "binding fitness [natural log]": -1.43}
